Assay results collected from several papers.
Each line is one published result; not all experiments were run side by side. Values joined by “and” are separate records of one study, mostly repeats; a detail may differ. ± gives the spread as reported.
UCHL1: Ubiquitin carboxyl-terminal hydrolase isozyme L1 (UCHL1, Homo sapiens, UniProt P09936)
BEST1: BEST1 (Homo sapiens, UniProt O76090)
ADRA2C: Alpha-2C adrenergic receptor (ADRA2C, Homo sapiens, UniProt P18825)
BRD4 BD1: Bromodomain-containing protein 4, BD1 (BRD4, Homo sapiens, UniProt O60885)
Voltage-dependent P/Q-type calcium channel subunit alpha-1A: Voltage-dependent P/Q-type calcium channel subunit alpha-1A (Homo sapiens, UniProt O00555)
TOP2B: DNA topoisomerase 2-beta (TOP2B, Homo sapiens, UniProt Q02880)
T1: G-quadruplex DNA (Homo sapiens); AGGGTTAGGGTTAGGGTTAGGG

The labelling of `O=C(CCl)NC(c1ccc(F)c(Cl)c1)C(F)(F)F` (centres unmarked) is reported as 9.28% (UCHL1; covalent, intact protein LC-MS; 12.5 µM).
The inhibition of `CCN1CCS/C1=C\C=C\C1=[N+](CC)CCS1` is reported as 10.6% (Trypanosoma cruzi; reporter translation, Renilla luciferase mRNA translation; cell-free extract; 40 µM; baseline: DMSO).
For `O=C(O)c1ccc([N+](=O)[O-])cc1`, the current density was -19.2 pA/pF and -19.6 pA/pF and -8.05 pA/pF and -15.1 pA/pF and -8.68 pA/pF and -14.5 pA/pF and -24.7 pA/pF (BEST1; whole-cell patch clamp; HEK293 transiently expressing channel; concentration not given, membrane potential -20 mV).
`COC(=O)Cc1ccc(C(=O)CCl)s1` gave a labelling of 26.1% (UCHL1; covalent, intact protein LC-MS; 12.5 µM).
`COc1cc(/C=C/c2ccc(O)cc2)cc(OC)c1` has a -TΔS of 0.37 kcal/mol (O-methyltransferase (Sorghum bicolor, UniProt A0A1B6PFV1); ITC; added: SAH+).
`O=c1nc(SCc2cc(F)cc(C(F)(F)F)c2)nc(SCc2ccc3nc(OCCN4CCOCC4)ccc3c2)[nH]1`: “mean linear DNA” 0% (TOP2A (Homo sapiens, UniProt P11388); DNA cleavage; 7.8 µM).
`Cc1ccnc([18F])c1-c1cccc(N2C[C@H](N3CCN(C(=O)c4nccs4)CC3)CC2=O)c1` has a Bmax of 120 nmol/g (Monoglyceride lipase (Macaca mulatta, UniProt H9ESL3); PET Scatchard plot; rhesus monkey, brain FCX; baseline).
The calcium influx of `Nc1ncnc2c1ncn2[C@@H]1O[C@H](COP(=O)(O)CP(=O)(O)OP(=O)(O)O)[C@@H](O)[C@H]1O` is reported as 99.1% and 88.8% and 96.5% (P2X purinoceptor 1 (P2RX1, Homo sapiens, UniProt P51575, L218T); calcium influx; 3.16 µM; baseline: ionomycin response).
`C#CCCC1(CC[C@H](NC(=O)NCCCCCCNC(=O)NCCNC(=O)COc2cccc([C@@H](CCc3ccc(OC)c(OC)c3)OC(=O)[C@@H]3CCCCN3C(=O)C(=O)C(C)(C)CC)c2)C(N)=O)N=N1.O=C(O)C(F)(F)F` — result for “normalized labeling ratio”: 5.21 (FKBP1A (Homo sapiens, UniProt P62942); photoaffinity labeling, in-gel fluorescence, refers to: Alexa Fluor 647 click label; 10 µM, UV irradiation 365 nm; baseline: probe over FKBP12 signal, higher = more labeling).
With `CNC(=O)[C@H](CNC(=O)c1cccc(COc2ccccc2C(N)=O)c1)NC(=O)COc1cc(C)cc2oc(=O)c3c(c12)CCC3` the ligand efficiency was 0.31 (TNKS (Homo sapiens, UniProt O95271); enzyme activity, inhibitor).
With `CCN1CCN(c2cc(N3CCN(CC)CC3)nc(NCCNc3ccnc4cc(Cl)ccc34)n2)CC1` the activation was 1.2 fold (Vitamin D3 receptor (VDR, Homo sapiens, UniProt P11473); reporter gene, Gal4 hybrid reporter; 20 µM; baseline: vehicle).
`C=CC[C@@H]1c2ccc(OC)c(OC)c2CN2CCc3cc4c(cc3[C@H]12)OCO4` gave an inhibition ratio of 0.513 and 0.507 and 0.548 (P2X purinoceptor 7 (P2rx7, Mus musculus, UniProt Q9Z1M0, A312V); ATP-evoked current, inhibitor, whole-cell patch clamp; HEK293 transfected; 1 µM, mutant A312V, added: ATP 1 mM; baseline: ATP alone).
`COc1cc(-c2cncc3c2CN(C)Cc2cc(N4CCNCC4)ccc2-3)cc(OC)c1OC` gave a remaining activity of 92% (PLK4 (Homo sapiens, UniProt O00444); kinase activity; 1 µM, human enzyme, added: ATP 10 µM; baseline: DMSO control).
With `Cc1cc(Oc2ncccc2CN2CCN(c3ccc(C(F)(F)F)cc3[N+](=O)[O-])CC2)ccc1-c1c(C)c(=O)[nH]c(=O)n1C` the selectivity ratio was 3 (ADRA2C; binding, radioligand binding; added: [3H]rauwolscine; baseline: Ki alpha2B over Ki alpha2C).
The ΔTm of `COc1cc(-c2cc(C(C)=O)n3ccccc23)c(OC)cc1Cn1ccnc1` is reported as 5.3 °C (BRD4 BD1).
With `CC(=O)Nc1c(F)ccc(NS(=O)(=O)c2cccc(Cl)c2O)c1F` the remaining activity was 83% (malate dehydrogenase; enzyme activity, inhibitor; 200 µM, pH 7.0, 1% DMSO, aggregation counter-screen).
With `Cn1c(=O)c2[nH]cnc2n(C)c1=O` the inhibition was -2% (Voltage-dependent P/Q-type calcium channel subunit alpha-1A; ion current, antagonist; HEK293; 3 µM).
For `O=C(O)CCCOc1c2ccoc2cc2oc(=O)ccc12`, channel block read “inactive” (Kcna3 (Mus musculus, UniProt P16390); Kv1.3 current, blocker; mouse L929 cells; concentration not given).
With `CC[C@@H]1[C@H](F)C(=O)N[C@@H]1COc1nccc2cc(C(N)=O)c(OC)cc12` the inhibition was 18.7% (TLK2 (Homo sapiens, UniProt Q86UE8); ATP-site probe binding, ActivX profiling; THP-1 cell lysate; 0.2 mM, Lys1 site).
For `O=c1cc(-c2ccc([N+](=O)[O-])cc2)[nH]c2c(-c3ccc(Cl)cc3)c(Cc3ccccc3)nn12`, “melting temperature shift” read 2.6 °C (ATP synthase mitochondrial F1 complex assembly factor 2 (ATPAF2, Homo sapiens, UniProt Q8N5M1); thermal stability, binder, thermal proteome profiling; RD, cell lysate; 50 µM, 0.5% DMSO; baseline: DMSO vehicle).
The labelling of `O=C(CCl)NCc1ccc(Cl)c(C(F)(F)F)c1` is reported as 11.3% (UCHL1; covalent, intact protein LC-MS; 12.5 µM).
`O=S(=O)(Nc1ccc(C2CCOC2)cc1)c1cccc(Cl)c1O` (centres unmarked) gave a remaining activity of 81% (malate dehydrogenase; enzyme activity, inhibitor; 200 µM, pH 7.0, 1% DMSO, aggregation counter-screen).
For `O=c1nc(SCc2cc(F)cc(C(F)(F)F)c2)nc(SCc2ccc3nc(Cl)ccc3c2)[nH]1`, “mean decatenated DNA” read 0.58% (TOP2B; decatenation; 31.25 µM).
`Nc1c(Br)cc(Br)cc1CN[C@H]1CC[C@H](O)CC1` has an inhibition of 31% (Voltage-dependent P/Q-type calcium channel subunit alpha-1A; ion current, antagonist; HEK293; 10 µM).
The reaction rate of `Nc1nc2c(ncn2[C@@H]2O[C@H](COP(=O)(O)O)[C@@H](O)[C@H]2O)c(=O)[nH]1` is reported as -2.23 s⁻¹ and 0.102 s⁻¹ and -0.896 s⁻¹ (GUK1 (Homo sapiens, UniProt Q16774, S37A); enzyme activity, NADH-coupled; 15.62 µM).
`C#CCOc1ccccc1C=NNC(=O)c1ccc(OC)cc1` has a labelling of 2.9% (UCHL1; covalent, intact protein LC-MS; 12.5 µM).
With `CC(=O)N[C@H](C(=O)N1C[C@H](O)C[C@H]1C(=O)NCc1ccc(-c2scnc2C)cc1)C(C)(C)SCCCCCCNC(=O)C[C@@H]1N=C(c2ccc(Cl)cc2)c2c(sc(C)c2C)-n2c(C)nnc21` the ΔG was -9.8 ± 0.2 kcal/mol (BRD4 BD1; binding, ITC; 25 °C, compound in cell, protein in syringe).
With `O=C(O)C1=CCNCC1` the current density was -0.03 pA/pF and -0.02 pA/pF and -0.13 pA/pF and -0.04 pA/pF and 0 pA/pF and 0.02 pA/pF (BEST1; whole-cell patch clamp; HEK293 transiently expressing channel; concentration not given, membrane potential 0 mV).
`C=CC(=O)N1CCC(COCC(=O)N2CCN(c3nc(-c4cnc(N)nc4C(F)F)nc(N4CCOC[C@@H]4C)n3)CC2)CC1` gave a remaining binding of 96% (CDK13 (Homo sapiens, UniProt Q14004); KINOMEscan; 1 µM; baseline: DMSO control).
`CC(=C/C(=O)O)/C=C/C=C(\C)C1C=C2C(C)(C)CCCC2(C)O1` (centres unmarked) — result for “Pearson correlation coefficient”: 0.55 (Rhodopsin (RHO, Homo sapiens, UniProt P08100, P23H); ER retention, immunostaining co-localization, refers to: opsin with calnexin; COS-7 transfected P23H; 50.00 µM).
`Cn1ncc(S(=O)(=O)NC2(c3cccc(OC(F)(F)F)c3)CC2)c1C(=O)O` has a remaining activity of 98% (malate dehydrogenase; enzyme activity, inhibitor; 200 µM, pH 7.0, 1% DMSO, aggregation counter-screen).
With `CN(C)CCCN1c2ccccc2Sc2ccc(Cl)cc21` the IC30 was 2370 nM (Voltage-dependent P/Q-type calcium channel subunit alpha-1A; ion current, antagonist, automated patch clamp).
For `COC(=O)c1cn(C)c2ccc(-c3cccnc3)cc12`, the activation was 0.89 fold (HNF4A (Homo sapiens, UniProt P41235); reporter gene, Gal4 hybrid reporter; 10 µM; baseline: vehicle).
`Cc1ccc(N2CCN(Cc3cccnc3Oc3ccc(-c4c(C)c(=O)[nH]c(=O)n4C)c(C)c3)CC2)cc1C` gave a selectivity ratio of 5 (ADRA2C; binding, radioligand binding; added: [3H]rauwolscine; baseline: Ki alpha2A over Ki alpha2C).
With `COc1ccc(C(=O)CCl)cc1Cl` the labelling was 16.9% (UCHL1; covalent, intact protein LC-MS; 12.5 µM).
For `C=CC(=O)N1CCC[C@@H](n2nc(-c3ccc(Oc4ccccc4)cc3)c3c(N)ncnc32)C1`, the remaining activity was 134% (TEC (Homo sapiens, UniProt P42680); 0.1 µM).
With `CCC(C)(C)C(=O)O[C@H]1C[C@@H](C)C=C2C=C[C@H](C)[C@H](CC[C@@H]3C[C@@H](O)CC(=O)O3)[C@H]21` the inhibition was 97% (Voltage-dependent P/Q-type calcium channel subunit alpha-1A; ion current, antagonist; HEK293; 30 µM).
`COc1ccc(CCN(C)CCCC(C#N)(c2ccc(OC)c(OC)c2)C(C)C)cc1OC` (centres unmarked) has an inhibition of 5.7% (Trypanosoma cruzi; reporter translation, Renilla luciferase mRNA translation; cell-free extract; 40 µM; baseline: DMSO).
With `CC(=O)N[C@@H](CC(C)C)C(=O)N[C@@H](CC(=O)O)C(=O)N1CCC[C@H]1C(=O)N1CCC[C@H]1C(=O)N[C@@H](CC(C)C)C(=O)N[C@@H](Cc1c[nH]cn1)C(=O)N[C@@H](CO)C(=O)N[C@H](C(=O)N[C@@H](C)C(N)=O)[C@@H](C)OP(=O)(O)O` the binding stoichiometry was 1.04 (PLK1 (Homo sapiens, UniProt P53350); polo-box domain binding, isothermal titration calorimetry; concentration not given, 25 °C).
The remaining activity of `CC(C)(CC(=O)Nc1scc(C2CC2)c1C(=O)O)c1ccc(F)cc1` is reported as 76% (malate dehydrogenase; enzyme activity, inhibitor; 200 µM, pH 7.0, 1% DMSO, aggregation counter-screen).
With `Cc1nc(CSc2nc(SCc3ccc(C(C)C)cc3)nc(=O)[nH]2)cs1` the decatenated DNA was 81.5% (TOP2B; decatenation; 15.6 µM, replicate 1).
`CCCCn1/c(=C/C=C/C2=[N+](CCC[N+](C)(C)C)c3ccc(F)cc3C2(C)C)c2cccc3cccc1c32`: binding “binds” (T1, G-quadruplex DNA (Homo sapiens); CD titration; KCl 50 mM, strong ICD).
`O=C(CCl)Cc1ccc(F)c(F)c1` has a labelling of 16.5% (UCHL1; covalent, intact protein LC-MS; 12.5 µM).
`CCN1CCC[C@H]1CNC(=O)c1c(O)c(Cl)cc(Cl)c1OC`: “log2 fold change” -0.096 (GPR3 (Homo sapiens, UniProt P46089); β-arrestin recruitment, TANGO luminescence; concentration not given; baseline: basal luminescence).
